Results collected from several papers.
Protocols differ between the studies behind these lines. “And” joins repeats or separate records; there may be more than shown.
GBA1 R534H: Lysosomal acid glucosylceramidase (GBA1, Homo sapiens, UniProt P04062, R534H)
Gria1/Gria2: Glutamate receptor AMPA 1/2 (Gria1/Gria2, Rattus norvegicus, UniProt P19490+P19491)
HDAC9: Histone deacetylase 9 (HDAC9, Homo sapiens, UniProt Q9UKV0)
P4HB: Protein disulfide-isomerase (P4HB, Homo sapiens, UniProt P07237)
HDAC6: Protein deacetylase HDAC6 (HDAC6, Homo sapiens, UniProt Q9UBN7)
bglA: bglA (Thermotoga maritima, UniProt Q08638)

| Compound | target | test | test system | conditions | IC50 |
| --- | --- | --- | --- | --- | --- |
| CC(C)C[C@H](NC(=O)[C@H](Cc1ccc2ccccc2c1)NC(=O)[C@H](CCC(=O)O)NC(=O)c1cscn1)C(=O)NC1CC1c1ccccc1 (stereo partly shown) | APC (Homo sapiens, UniProt P25054) | ligand displacement, FP |  |  | 79 µM |
| OC[C@H]1[C@@H](O)[C@H](O)[C@@H](O)CN1CCCCCOCC(COCCCCCN1C[C@H](O)[C@@H](O)[C@H](O)[C@@H]1CO)C12CC3CC(CC(C3)C1)C2 (stereo partly shown) | GBA1 R534H | inhibitor, 4MU-β-D-glucopyranoside |  | with: 4MU-β-D-glucopyranoside | 5 µM |
| O=C(O)Cc1cc2c(cc1C(=O)c1ccccc1Br)OCO2 | Gria1/Gria2 | ion current, antagonist, patch clamp |  |  | 4.57 µM |
| Cc1cnc(Nc2ccc3c(c2)CCN(C(=O)/C=C/C(=O)C(C)C)C3)nc1-c1cnn(C(C)C)c1 | JAK3 (Homo sapiens, UniProt P52333) | enzyme activity, inhibitor, ADP detection |  |  | > 0.03 µM |
| CCN(CC)CC(=O)Nc1cccc(-n2cc(-c3ccc4ccc(-c5cn(-c6cccc(NC(=O)CN(CC)CC)c6)nn5)cc4c3)nn2)c1 | FGFR3 (Homo sapiens, UniProt P22607, K650E) | kinase activity, inhibitor |  | construct 411-806 K650E | > 10 µM |
| O=c1c(Oc2ccccc2)c(C(F)(F)F)oc2c(O)c(O)ccc12 | Cullin-1, C-terminal domain with ROC1 (Homo sapiens, UniProt Q13616) | inhibitor, FRET |  | with: ROC1-CUL1 CTD | 3.2 µM |
| CCCCCOCCCCCN1C[C@H](O)[C@@H](O)[C@H](O)[C@H]1CO | GBA1 R534H | inhibitor, 4MU-β-D-glucopyranoside |  | with: 4MU-β-D-glucopyranoside | 705 µM |
| Cc1nc2c(F)cc(-c3nc(Nc4ccc(CNC(=O)CCCCCCC(=O)NO)cc4)ncc3F)cc2n1C(C)C | HDAC9 | enzyme activity, inhibitor |  |  | > 10 µM |
| CC(C)COCCCCCN1C[C@H](O)[C@@H](O)[C@H](O)[C@H]1CO | GBA1 R534H | inhibitor, 4MU-β-D-glucopyranoside |  | with: 4MU-β-D-glucopyranoside | 23 µM |
| O=C(CCN(Cc1cccnc1)Cc1ccc(Cl)c(O)c1F)NO | MEP1A (Homo sapiens, UniProt Q16819) | enzyme activity, inhibitor |  |  | 1.1 µM |
| COc1ccc(Br)cc1/C=C/C(=O)c1ccc([N+](=O)[O-])cc1 | P4HB | enzyme activity, inhibitor |  |  | > 100 µM |
| CCOC(=O)C[C@@H](C#N)NC(=O)[C@@H]1CCCN1C(=O)[C@@H](NC(=O)c1ccc(N)c(Cl)c1)C(C)(C)C | Cathepsin K (CTSK, Homo sapiens, UniProt P43235) | enzyme activity, inhibitor |  |  | 6.73 µM |
| CC(C)c1ccc(OS(=O)(=O)Oc2cncc(C(=O)NO)c2)cc1 | HDAC6 | enzyme activity, inhibitor, fluorescence |  |  | 0.063 µM |
| Nc1ncc2c(n1)-c1c([nH]c3ccc(C4=CCOCC4)cc13)CCC2 | PIP5K1C (Homo sapiens, UniProt O60331) | enzyme activity, inhibitor, TR-FRET |  |  | 0.84 µM |
| O=C(CCc1ccc(CNC(C(=O)OC2CCCC2)C2CCCCC2)cn1)NO (stereo not shown) | HDAC10 (Homo sapiens, UniProt Q969S8) | enzyme activity, inhibitor |  |  | 1 µM |
| Cc1cc(C)nc(NC(=S)N2CCN(Cc3ccc(C(F)(F)F)cc3)CC2)c1 | Glycerol-3-phosphate dehydrogenase 1-like protein (GPD1L, Homo sapiens, UniProt Q8N335) | enzyme activity |  | counterscreen | > 100 µM |
| CCN1CCN(c2ccc(C(=O)/C=C/c3ccc(O)c(OC)c3)cc2F)CC1 | P4HB | enzyme activity, inhibitor |  |  | > 10 µM |
| O=C1CCC(N2C(=O)c3ccc(N4CC(C(=O)N5CC(CN6CCC(CNC(=O)c7cccc(-c8noc(C(F)(F)F)n8)c7)(c7nc(-c8ccccc8)cs7)CC6)C5)C4)cc3C2=O)C(=O)N1 (stereo not shown) | HDAC9 | enzyme activity, inhibitor |  |  | 0.15 µM |
| O=S(=O)(Nc1ccc(CO)cc1)c1ccc(Cl)c(Cl)c1 | 17-beta-hydroxysteroid dehydrogenase 13 (Homo sapiens, UniProt Q7Z5P4) | enzyme activity, inhibitor |  | with: β-estradiol | > 80 µM |
| CC(=O)N1CCC2(CC1)C(=O)N(CC(=O)Nc1ccccc1)CN2c1ccccc1 | DDR1 (Homo sapiens, UniProt Q08345) | ligand displacement |  |  | > 167 µM |
| CC(C)(C)COCCCCCN1C[C@H](O)[C@@H](O)[C@H](O)[C@H]1CO | GBA1 R534H | inhibitor, 4MU-β-D-glucopyranoside |  | with: 4MU-β-D-glucopyranoside | 6.2 µM |
| N#Cc1c(-c2ccco2)cc(-c2cccs2)[nH]c1=O | Protein FosB, ΔFosB isoform (Fosb, Mus musculus, UniProt P13346) | DNA binding disruption, fluorescence polarization |  | 320 nM ΔFosB homomer, with: TMR-cdk5 oligonucleotide 25 nM | ~7 µM and 7.1 µM |
| O=C(O)c1cc(/C=C/C(=O)c2cc(Cl)ccc2O)c2c(c1)COCO2 | P4HB | enzyme activity, inhibitor |  |  | 79 µM |
| Fc1ccc(Nc2nc(NC3CCCCC3)c3ccccc3n2)cc1F | ADRB2 (Homo sapiens, UniProt P07550, V126A) | β-arrestin2 recruitment, antagonist, BRET | HEK293 | mutant V126A, with: isoprenaline 1 µM | 1.58 µM |
| CN1CCCC1C(=O)NC(Cc1ccc(-n2cccn2)cc1)B(O)O (stereo not shown) | PSMB6/PSMB7 (Homo sapiens, UniProt P28072+Q99436) | β1c caspase-like activity, inhibitor |  | constitutive proteasome, with: Z-LLE-AMC | > 10 µM |

| Compound | target | test | test system | conditions | IC50 |
| --- | --- | --- | --- | --- | --- |
| OC[C@@H]1[C@@H](O)[C@H](O)[C@@H](O)c2nccn21 | bglA | enzyme activity, inhibitor |  | pH 6.8, with preincubation | 0.014 µM |
| O=C(O)Cc1cc2c(cc1C(=O)c1cccc(Br)c1)OCO2 | Gria1/Gria2 | ion current, antagonist, patch clamp |  |  | 4.47 µM |
| Cc1cc(C)c(S(=O)(=O)N(CC(=O)O)c2ccc(Nc3ccnc(N4CCCC4)n3)cc2)c(C)c1 | CDK6 (Homo sapiens, UniProt Q00534) | enzyme activity, inhibitor |  |  | > 100 µM |
| OC[C@H]1[C@@H](O)[C@H](O)[C@@H](O)CN1CCCCCOCc1ccc(-c2ccccc2)cc1C(F)(F)F | GBA1 R534H | inhibitor, 4MU-β-D-glucopyranoside |  | with: 4MU-β-D-glucopyranoside | 5 µM |
| CCCCCCCCCCCCCCN(O)C(=O)CCCCC[C@@H]1NC(=O)[C@H]([C@@H](C)CC)NC(=O)[C@H](Cc2ccccc2C(F)(F)F)NC(=O)CCSCc2cccc(n2)CSCCCNC1=O | HDAC9 | enzyme activity, inhibitor, fluorogenic |  |  | > 30 µM |
| OC[C@@H]1[C@@H](O)[C@H](O)[C@@H](O)CN1CCCCCCOCC12CC3CC(CC(C3)C1)C2 | GBA1 R534H | inhibitor, 4MU-β-D-glucopyranoside |  | with: 4MU-β-D-glucopyranoside | 0.1 µM |
| COc1cccc(/C=C/C(=O)c2ccc3c(c2)NC(=O)CO3)c1OC(F)F | P4HB | enzyme activity, inhibitor |  |  | 96 µM |
| Cc1nn(-c2cccc(N)c2)c(=O)c2cnc(Nc3ccc(N4CCNCC4)cc3)nc12 | IRAK4 (Homo sapiens, UniProt Q9NWZ3) | enzyme activity, inhibitor |  |  | > 10 µM |
| C/C(=N\Nc1nc(-c2ccccc2)cs1)c1ccc2c(c1)sc1nc(=O)c(C#N)cn12 | DNA gyrase (gyrA/gyrB, Escherichia coli, UniProt P0AES4+P0AES6) | enzyme activity, inhibitor |  |  | 1.56 µM |
| O=C(O)Cc1cc2c(cc1C(=O)c1ccccc1I)OCO2 | Gria1/Gria2 | ion current, antagonist, patch clamp |  |  | 4.68 µM |
| C[C@@H](Nc1nc2c(cnn2C(C)(C)C)c(=O)n1Cc1cccc(F)c1)c1ccc(Cl)cc1 | PDE10A (Homo sapiens, UniProt Q9Y233) | enzyme activity, inhibitor |  |  | 0.995 µM |
| COC(=O)Cc1cc2c(cc1C(=O)c1ccc(Cl)cc1Cl)OCO2 | Gria1/Gria2 | ion current, patch clamp |  |  | 4.89 µM |
| OC[C@@H]1[C@@H](O)[C@H](O)[C@@H](O)[C@H]2O[C@@H]12 | bglA | enzyme activity, inhibitor |  | pH 6.8, with preincubation | > 100 µM |
| Cc1cc(NC2CCN(C)CC2)ccc1-c1cc2c(N3CCC[C@H](C(=O)NCc4ccc(OC(F)(F)F)cc4)C3)ncnc2[nH]1 | FGFR1 (Homo sapiens, UniProt P11362) | enzyme activity, inhibitor, mobility shift |  |  | 5.95 µM |
| O[C@H]1[C@H](O)[C@@H](O)c2[nH]cnc2[C@@H]1O | GBA1 R534H |  |  | 30 min preincubation, pH 5.2, with: 200 µM 2,4-dinitrophenyl-β-D-glucopyranoside | 21.8 µM |
| CC(C)(C)c1ccccc1OS(=O)(=O)Oc1cccc(C(=O)NO)c1 | HDAC6 | enzyme activity, inhibitor, fluorescence |  |  | 0.919 µM |
| CCCCCCCCOCCCCCN1C[C@H](O)[C@@H](O)[C@H](O)[C@H]1CO | GBA1 R534H | inhibitor, 4MU-β-D-glucopyranoside |  | with: 4MU-β-D-glucopyranoside | 0.5 µM |
| CC[C@H](C)C(=O)O[C@H]1C[C@@H](C)C=C2C=C[C@H](C)[C@H](CC[C@@H]3CC=CC(=O)O3)[C@H]21 | CFTR (Homo sapiens, UniProt P13569) | apical chloride current, inhibitor | T84, basolaterally permeabilized | with: forskolin 20 µM | ~0.85 µM and 0.85 µM |
| CC(C)C[C@H](NC(=O)c1ccccc1)C(=O)N[C@@H](CC(C)C)C(=O)N[C@H](/C=C/S(C)(=O)=O)Cc1ccc(CN)cc1 | PSMB8 (Homo sapiens, UniProt P28062) | enzyme activity, inhibitor |  | lysate | > 10 µM |
| C[C@@H](O)[C@@H]1NC(=O)[C@H](CCCCN)NC(=O)[C@@H](Cc2ccc(NC(N)=O)cc2)NC(=O)[C@H](Cc2ccc(O)cc2)NC(=O)[C@H](NC(=O)[C@H](Cc2ccc(Cl)cc2)NC(=O)CN2CCN(CC(=O)O)CCN(CC(=O)O)CCN(CC(=O)O)CC2)CSSC[C@@H](C(=O)N[C@@H](Cc2ccc3ccccc3c2)C(N)=O)NC1=O | SSTR1 (Homo sapiens, UniProt P30872) | ligand displacement, radioligand |  |  | > 1 µM |
| O=C(/C=C/c1cccc(C(F)(F)F)c1)c1cccc(O)c1 | P4HB | enzyme activity, inhibitor |  |  | 0.97 µM |
| CCCCCN1C[C@H](O)[C@@H](O)[C@H](O)[C@@H]1CO | GBA1 R534H | inhibitor, 4MU-β-D-glucopyranoside |  | with: 4MU-β-D-glucopyranoside | 1000 µM |
| COc1cc(/C=C/C(=O)c2cccc(N3CCOCC3)c2)cc(OC)c1OC | P4HB | enzyme activity, inhibitor |  |  | > 100 µM |
| CC1=NN(c2ccc(Oc3ccccc3)c(S(=O)(=O)O)c2)C(=O)C1 | Protein FosB, ΔFosB isoform, with JunD (Fosb, Mus musculus, UniProt P13346) | ΔFosB/JunD binding to AP-1 DNA, inhibitor, fluorescence polarization |  | protein, full length 280 nM, no TCEP, with: 25 nM TMR-cdk5 oligonucleotide | 10 to 90 µM |

For quick reference, copied from above:
| Compound | target | test | test system | conditions | IC50 |
| --- | --- | --- | --- | --- | --- |
| O=C(CCc1ccc(CNC(C(=O)OC2CCCC2)C2CCCCC2)cn1)NO (stereo not shown) | HDAC10 (Homo sapiens, UniProt Q969S8) | enzyme activity, inhibitor |  |  | 1 µM |
| Cc1cc(C)nc(NC(=S)N2CCN(Cc3ccc(C(F)(F)F)cc3)CC2)c1 | Glycerol-3-phosphate dehydrogenase 1-like protein (GPD1L, Homo sapiens, UniProt Q8N335) | enzyme activity |  | counterscreen | > 100 µM |
| CCN1CCN(c2ccc(C(=O)/C=C/c3ccc(O)c(OC)c3)cc2F)CC1 | P4HB | enzyme activity, inhibitor |  |  | > 10 µM |
| O=C1CCC(N2C(=O)c3ccc(N4CC(C(=O)N5CC(CN6CCC(CNC(=O)c7cccc(-c8noc(C(F)(F)F)n8)c7)(c7nc(-c8ccccc8)cs7)CC6)C5)C4)cc3C2=O)C(=O)N1 (stereo not shown) | HDAC9 | enzyme activity, inhibitor |  |  | 0.15 µM |
| O=S(=O)(Nc1ccc(CO)cc1)c1ccc(Cl)c(Cl)c1 | 17-beta-hydroxysteroid dehydrogenase 13 (Homo sapiens, UniProt Q7Z5P4) | enzyme activity, inhibitor |  | with: β-estradiol | > 80 µM |
| CC(=O)N1CCC2(CC1)C(=O)N(CC(=O)Nc1ccccc1)CN2c1ccccc1 | DDR1 (Homo sapiens, UniProt Q08345) | ligand displacement |  |  | > 167 µM |
| CC(C)(C)COCCCCCN1C[C@H](O)[C@@H](O)[C@H](O)[C@H]1CO | GBA1 R534H | inhibitor, 4MU-β-D-glucopyranoside |  | with: 4MU-β-D-glucopyranoside | 6.2 µM |
| N#Cc1c(-c2ccco2)cc(-c2cccs2)[nH]c1=O | Protein FosB, ΔFosB isoform (Fosb, Mus musculus, UniProt P13346) | DNA binding disruption, fluorescence polarization |  | 320 nM ΔFosB homomer, with: TMR-cdk5 oligonucleotide 25 nM | ~7 µM and 7.1 µM |
